Assay results gathered from unrelated publications.
Compare with care: the assays were run in different laboratories. Values joined by “and” are separate records of one study, mostly repeats; a detail may differ. Numbers after ± are the reported error.

NC1CCN(C(=O)Oc2ccc(C3CCCC4(C3)OOC3(O4)C4CC5CC(C4)CC3C5)cc2)CC1 (racemic)
MRT(0-inf) (male ICR mice, plasma; oral, 50 mg/kg): 9.83 h

N#Cc1ccccc1CC(N)C(=O)NC(Cc1ccc(Cl)cc1Cl)C(=O)NC(CC(=O)NCCCc1cccnc1)Cc1ccc(F)cc1 (centres unmarked)
microsomal CLint (metabolic stability; CD-1 mouse, liver microsomes; 1 µM): 278 µL/min/mg

C[C@H](O)[C@@H](NC(=O)[C@H]1CCCN1C(=O)[C@@H](CCCCN)NC(=O)[C@@H](CO)NC(=O)[C@@H](Cc1ccc(O)cc1)NC(=O)[C@@H](CC(N)=O)NC(=O)CCOCCOCCOCCNC(=O)CN1CCN(CC(=O)O)CCN(CC(=O)O)CCN(CC(=O)O)CC1)C(=O)N[C@H](CC(=O)O)C(=O)N[C@H](CCCNC(=N)N)C(=O)N[C@H](CCC(N)=O)C(=O)N[C@H](Cc1ccc(O)cc1)C(=O)N[C@H](Cc1c[nH]cn1)C(=O)N[C@H](Cc1ccccc1)C(N)=O [gallium-68 labelled]
tissue uptake (BALB/c nude mice U-87 MG tumour, muscle; intravenous, 1.85 MBq, 1 h, radiolabelled): 0.18 ± 0.02 %ID/g

CC(CCC(=O)NCC(=O)O)C1CCC2C3CCC4CC(OC5OC(C(=O)O)C(O)C(O)C5O)CCC4(C)C3CC(O)C12C (centres unmarked)
plasma concentration (women, T/C genotype, plasma; dose not given, geometric mean): 80.7 ng/mL

O=C1NC2(CC2)COc2ncc(F)cc2[C@H]2COCCN2c2ccn3ncc1c3n2
organ-to-body weight ratio (Sprague-Dawley rat, male, spleen; oral, 10 mg/kg/day, 4 weeks dosing, end of recovery): 0.218 ± 0.035%

CSCC[C@H](N)C(=O)N[C@@H](C)C(=O)N[C@@H](Cc1c[nH]c2ccccc12)C(=O)N[C@@H](Cc1c[nH]cn1)C(=O)N[C@@H](CC(=O)O)C(=O)N[C@@H](CC(=O)O)C(=O)N[C@@H](CCC(=O)O)C(=O)N[C@@H](CCC(=O)O)C(=O)N[C@@H](Cc1ccccc1)C(=O)N[C@@H](C)C(=O)N[C@@H](CCCNC(=N)N)C(=O)N[C@@H](CCCNC(=N)N)C(=O)N[C@@H](CCCNC(=N)N)C(=O)N[C@@H](CCCNC(=N)N)C(=O)NCCCCCC(=O)NCCCCC(NC(=O)CCCCCNC(=O)[C@H](CCCNC(=N)N)NC(=O)[C@H](CCCNC(=N)N)NC(=O)[C@H](CCCNC(=N)N)NC(=O)[C@H](CCCNC(=N)N)NC(=O)[C@H](C)NC(=O)[C@H](Cc1ccccc1)NC(=O)[C@H](CCC(=O)O)NC(=O)[C@H](CCC(=O)O)NC(=O)[C@H](CC(=O)O)NC(=O)[C@H](CC(=O)O)NC(=O)[C@H](Cc1c[nH]cn1)NC(=O)[C@H](Cc1c[nH]c2ccccc12)NC(=O)[C@H](C)NC(=O)[C@@H](N)CCSC)C(=O)NCCCCC(NC(=O)C(CCCCNC(=O)CCCCCNC(=O)[C@H](CCCNC(=N)N)NC(=O)[C@H](CCCNC(=N)N)NC(=O)[C@H](CCCNC(=N)N)NC(=O)[C@H](CCCNC(=N)N)NC(=O)[C@H](C)NC(=O)[C@H](Cc1ccccc1)NC(=O)[C@H](CCC(=O)O)NC(=O)[C@H](CCC(=O)O)NC(=O)[C@H](CC(=O)O)NC(=O)[C@H](CC(=O)O)NC(=O)[C@H](Cc1c[nH]cn1)NC(=O)[C@H](Cc1c[nH]c2ccccc12)NC(=O)[C@H](C)NC(=O)[C@@H](N)CCSC)NC(=O)CCCCCNC(=O)[C@H](CCCNC(=N)N)NC(=O)[C@H](CCCNC(=N)N)NC(=O)[C@H](CCCNC(=N)N)NC(=O)[C@H](CCCNC(=N)N)NC(=O)[C@H](C)NC(=O)[C@H](Cc1ccccc1)NC(=O)[C@H](CCC(=O)O)NC(=O)[C@H](CCC(=O)O)NC(=O)[C@H](CC(=O)O)NC(=O)[C@H](CC(=O)O)NC(=O)[C@H](Cc1c[nH]cn1)NC(=O)[C@H](Cc1c[nH]c2ccccc12)NC(=O)[C@H](C)NC(=O)[C@@H](N)CCSC)C(N)=O (some centres unmarked)
tissue distribution (C57BL/6 mouse female, spine; dose not given, 3 h; reference: total): 6.74%

CSCC[C@H](NC(=O)CNC(=O)[C@H](CCCCN)NC(=O)[C@H](CC(C)C)NC(=O)[C@@H]1CCCN1C(=O)[C@H](CO)NC(=O)[C@H](Cc1c[nH]cn1)NC(=O)[C@H](Cc1c[nH]c2ccccc12)NC(=O)[C@H](CCCNC(=N)N)NC(=O)[C@H](CC(C)C)NC(=O)[C@H](CCCNC(=N)N)NC(=O)[C@H](Cc1c[nH]c2ccccc12)NC(=O)[C@H](CS)NC(=O)CCCCCNC(=O)CN1CCN(CC(=O)O)CCN(CC(=O)O)CCN(CC(=O)O)CC1)C(=O)O [copper-64 labelled]
tissue uptake (PET imaging; BALB/c nude mice, kidney; intravenous, dose not given, 18 h, Huh-7 tumour-bearing): 5.34 ± 0.4 %ID/g

COCCN(C(=O)[C@H](C)N(Cc1ccccc1)C(C)=O)[C@@H](C)C(=O)N(Cc1c[nH]c2cc(Cl)ccc12)[C@@H](C)C(=O)N(CCOC)[C@@H](C)C(=O)N(CCC(C)(C)C)[C@@H](C)C(N)=O
Papp (PAMPA; 10 µM, 4 h, pH 7.4): 0.22 ×10⁻⁶ cm/s

C#Cc1c(F)ccc2cc(O)cc(-c3ncc4c(N5CC6CCC(C5)N6C(=O)OC(C)OC(=O)C(CC)CCCC)nc(OC[C@@]56CCCN5C[C@H](F)C6)nc4c3F)c12 (some centres unmarked)
t1/2 (item: prodrug; mouse whole blood; 1 µM): 0.578 h

C=C/C=C/C[C@@H](C)[C@@H](O)[C@H]1C(=O)N[C@@H](CC)C(=O)N(C)CC(=O)N(C)[C@@H](CC(C)C)C(=O)N[C@@H](C(C)C)C(=O)N(C)[C@@H](CC(C)C)C(=O)N[C@@H](C)C(=O)N[C@H](C)C(=O)N(C)[C@@H](CC(C)C)C(=O)N(C)[C@@H](CC(C)C)C(=O)N(C)[C@@H](C(C)C)C(=O)N1C
fractional magnesium excretion (male Wistar Kyoto rat; intraperitoneal, 0.5 mg/kg/day, day 18; reference: vehicle): no effect

CCCCCCCCCCCCCCCC(=O)N[C@@H](CCC(=O)NCCOCCOCCC(=O)NCCOCCOCCC(=O)NCCCC[C@H](NC(=O)[C@H](CC(=O)O)NC(=O)[C@H](CC(C)C)NC(=O)[C@H](Cc1ccc(O)cc1)NC(=O)[C@H](CCCCN)NC(=O)[C@H](CO)NC(=O)[C@H](Cc1ccc(O)cc1)NC(=O)[C@H](CC(=O)O)NC(=O)[C@H](CO)NC(=O)[C@@H](NC(=O)[C@H](Cc1ccccc1)NC(=O)[C@@H](NC(=O)CNC(=O)[C@H](CCC(N)=O)NC(=O)[C@@H](CO)NC(=O)[C@@H](N)Cc1c[nH]cn1)[C@@H](C)O)[C@@H](C)O)C(=O)N[C@@H](CCCNC(=N)N)C(=O)N[C@@H](CCCNC(=N)N)C(=O)N[C@@H](C)C(=O)N[C@@H](CCC(N)=O)C(=O)N[C@@H](CC(=O)O)C(=O)N[C@@H](Cc1ccccc1)C(=O)N[C@H](C(=O)N[C@@H](CCC(N)=O)C(=O)N[C@@H](Cc1c[nH]c2ccccc12)C(=O)N[C@@H](CC(C)C)C(=O)N[C@@H](CC(C)C)C(=O)N[C@@H](CC(N)=O)C(=O)N[C@H](C(=O)NCC(=O)NCC(=O)N1CCC[C@H]1C(=O)N[C@@H](CO)C(=O)N[C@@H](CO)C(=O)NCC(=O)N[C@@H](C)C(=O)N1CCC[C@H]1C(=O)N1CCC[C@H]1C(=O)N1CCC[C@H]1C(=O)N[C@@H](CO)C(N)=O)[C@@H](C)O)C(C)C)C(=O)O
AUC(0-t) (female rhesus monkeys; 60 µg/kg, day 28): 841 ng·h/mL

CN1Cc2cc(Cl)ccc2-n2c(nnc2C2CCN(c3cccc([18F])n3)CC2)C1
tissue uptake (C57BL/6 mouse male, liver; intravenous, dose not given, 5 min, together with: blocking agent 10 mg/kg): 16.4 ± 5.71 %ID/g

CC[C@H](C)[C@H](NC(=O)[C@H](CCCCN)NC(=O)CNC(=O)[C@H](CC(C)C)NC(=O)[C@H](Cc1ccccc1)NC(=O)[C@H](CCCCN)NC(=O)[C@H](CO)NC(=O)[C@H](Cc1ccccc1)NC(=O)[C@H](Cc1c[nH]c2ccccc12)NC(=O)[C@H](CCC(N)=O)NC(=O)[C@@H](NC(=O)[C@H](Cc1ccccc1)NC(=O)CCCCCNC(=O)CN1CCN(CC(=O)O)CCN(CC(=O)O)CCN(CC(=O)O)CC1)C(C)C)C(=O)N[C@@H](CCC(=O)O)C(=O)N1CCC[C@H]1C(=O)N[C@@H](CC(=O)O)C(=O)N[C@H](C(=O)N[C@@H](CO)C(=O)N[C@@H](CCC(N)=O)C(=O)N[C@H](C(=O)N[C@@H](CCC(N)=O)C(=O)N[C@@H](CC(=O)O)C(=O)N1CCC[C@H]1C(=O)N[C@@H](CC(N)=O)C(=O)N[C@@H](CC(=O)O)C(=O)N[C@@H](CCC(N)=O)C(=O)N[C@@H](Cc1ccc(O)cc1)C(=O)N[C@@H](CCC(=O)O)C(=O)N1CCC[C@H]1C(=O)N[C@@H](Cc1ccccc1)C(=O)O)C(C)C)C(C)C [copper-64 labelled]
SUVmean (dynamic PET; mouse, CT26 tumour, untreated, tumour; intravenous, 100 µCi/mouse, 1380 s): 0.59 SUV

CSCC[C@H](NC(=O)[C@@H](NC(=O)[C@H](CC(C)C)NC(=O)[C@@H](NC(=O)[C@H](Cc1c[nH]cn1)NC(=O)CCCCCNC(=O)[C@H](CCCNC(=N)N)NC(=O)[C@H](CCCNC(=N)N)NC(=O)[C@H](CCCNC(=N)N)NC(=O)[C@H](CCC(N)=O)NC(=O)[C@H](CCCNC(=N)N)NC(=O)[C@H](CCCNC(=N)N)NC(=O)[C@H](CCCCN)NC(=O)[C@H](CCCCN)NC(=O)[C@H](CCCNC(=N)N)NC(=O)CNC(=O)[C@@H](N)Cc1ccc(O)cc1)C(C)C)C(C)C)C(=O)N[C@@H](CS)C(=O)N[C@@H](C)C(=O)N[C@H](C(N)=O)[C@@H](C)O
blood urea nitrogen (C57BL/6J mice; Alzet osmotic pump, 3 mg/kg, 8 weeks): 29 mg/dL and 26 mg/dL and 25 mg/dL

For quick reference, copied from above:
NC1CCN(C(=O)Oc2ccc(C3CCCC4(C3)OOC3(O4)C4CC5CC(C4)CC3C5)cc2)CC1 (racemic)
MRT(0-inf) (male ICR mice, plasma; oral, 50 mg/kg): 9.83 h

N#Cc1ccccc1CC(N)C(=O)NC(Cc1ccc(Cl)cc1Cl)C(=O)NC(CC(=O)NCCCc1cccnc1)Cc1ccc(F)cc1 (centres unmarked)
microsomal CLint (metabolic stability; CD-1 mouse, liver microsomes; 1 µM): 278 µL/min/mg
